Measurements collected from several papers.
Each numbered part is a random draw from the data of one study; scales do not carry over between parts.
Chain of UniProt O15294 (whole entry, looked up): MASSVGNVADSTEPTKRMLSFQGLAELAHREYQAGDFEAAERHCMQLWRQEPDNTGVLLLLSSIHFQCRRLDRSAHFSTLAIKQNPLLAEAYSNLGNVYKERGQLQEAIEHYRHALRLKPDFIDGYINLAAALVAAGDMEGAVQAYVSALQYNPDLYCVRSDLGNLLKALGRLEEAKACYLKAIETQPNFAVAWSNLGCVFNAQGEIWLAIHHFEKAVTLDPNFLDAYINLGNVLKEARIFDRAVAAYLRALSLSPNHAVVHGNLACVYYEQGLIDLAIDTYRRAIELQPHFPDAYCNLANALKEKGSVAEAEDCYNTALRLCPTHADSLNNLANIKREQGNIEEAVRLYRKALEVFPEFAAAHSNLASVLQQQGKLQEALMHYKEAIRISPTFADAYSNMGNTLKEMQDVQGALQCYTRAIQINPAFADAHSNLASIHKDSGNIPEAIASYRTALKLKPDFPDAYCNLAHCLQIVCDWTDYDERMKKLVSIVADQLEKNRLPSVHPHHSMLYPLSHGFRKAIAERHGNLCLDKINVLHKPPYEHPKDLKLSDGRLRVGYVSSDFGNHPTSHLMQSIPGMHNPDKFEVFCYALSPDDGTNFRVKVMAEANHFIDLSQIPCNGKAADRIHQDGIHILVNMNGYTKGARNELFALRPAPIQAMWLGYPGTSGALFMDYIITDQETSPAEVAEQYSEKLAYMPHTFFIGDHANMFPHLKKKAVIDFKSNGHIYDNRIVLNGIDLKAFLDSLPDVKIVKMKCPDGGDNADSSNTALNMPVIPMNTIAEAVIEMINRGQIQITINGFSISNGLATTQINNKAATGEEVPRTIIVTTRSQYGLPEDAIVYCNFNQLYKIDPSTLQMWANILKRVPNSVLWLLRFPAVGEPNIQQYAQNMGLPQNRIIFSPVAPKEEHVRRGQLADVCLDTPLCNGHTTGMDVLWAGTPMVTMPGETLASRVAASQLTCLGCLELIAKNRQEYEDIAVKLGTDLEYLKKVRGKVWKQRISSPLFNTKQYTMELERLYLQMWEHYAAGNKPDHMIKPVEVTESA

Sample 1 — method: RNAcompete; form: RNA; sample: in vitro; concentration: 20 nM; notes: 7-mer, probes averaged, single round; reference: mean of 7-mers; direction: higher = stronger binding
Target: PABPC1L2, full length, GST fusion (mouse, UniProt A0ABA7IW68)
Construct (chain): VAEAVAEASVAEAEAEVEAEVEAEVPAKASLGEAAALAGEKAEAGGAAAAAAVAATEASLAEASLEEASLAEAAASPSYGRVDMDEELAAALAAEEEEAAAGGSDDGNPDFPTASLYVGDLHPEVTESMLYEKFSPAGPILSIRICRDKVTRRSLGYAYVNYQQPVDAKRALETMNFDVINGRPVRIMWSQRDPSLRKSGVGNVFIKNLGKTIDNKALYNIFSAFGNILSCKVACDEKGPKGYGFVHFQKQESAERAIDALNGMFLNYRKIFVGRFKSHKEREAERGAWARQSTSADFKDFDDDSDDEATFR
Strand | 7-mer Z-score
ACCUGGA | -0.012
UUAAUAU | -0.117
CUCGUUU | -0.436
UAGCUCG | -0.335
ACCCAAU | -0.213
GUUGACG | -0.159
AUGAACA | 0.222
GUAUCAG | -0.177

Sample 2 — method: RNA Bind-n-Seq; form: RNA; sample: in vitro; concentration: 200 nM; notes: whole 134-nt RNA, ends assumed; added: 150 mM KCl; reference: input library; direction: higher = stronger binding
Target: Fragile X messenger ribonucleoprotein 1, C-terminal low-complexity region (Fmr1, Mus musculus, UniProt P35922)
Shared flanks, not repeated: GGGAGUUCUACAGUCCGACGAUC … UGGAAUUCUCGGGUGUCAAGG
Strand | log2 enrichment
UGGCCCUGGUGGCAUGCGCGGAGGAAGAGGUGGCCUCAUGGAUCGUGGUGGUCCCGGUGGAAUGUUCAGAGGUGGCCGUGGUGGAGACAG | -0.0881
AAGUCCUGUGCUACACAUCGUAUGUACCGAAUCGGGUUUUUGGGUUUUUGGGAGGGAAAGUAUUAUGUUACGCCGUUCGGAUCUGCACUU | 0.716
AAGUCCUGUGCUACACAUCGUAUGUACCGAAUCGGGCCCCGGCCCCGGGCCCCGGGAAAGUAUUAUGUUACGCCGUUCGGAUCUGCACUU | -0.856
UCAAGUCCUGUGCUACACAUCGUAUGUACCGAAUCGGGGAGGGGUGGGGUGGGGAAAGUAUUAUGUUACGCCGUUCGGAUCUGCACUUCC | 1.48
CUCAAGUCCUGUGCUACACAUCGUAUGUACCGAAUCGGGAGGGUGGGUUUGGGAAAGUAUUAUGUUACGCCGUUCGGAUCUGCACUUCCA | 1.05
CACAGACAACACGCACCCACACAGACACAGAGGGAAGGGGUUGGGAUGGGGACAGGGAGCACAGCAGGGCGGGGUAGGACCCCAGCCCCU | 1.19
UGGCCCUGGUGGCAUGCGGGGAGGAAGAGGUGGCCUCAUGGAUCGUGGUGGUCCAGGUGGAAUGUUCAGAGGUGGCCGUGGUGGAGACAG | 0.0866
UUUCUAGGGAAGGUGCUUCUGGAAAAGUUGCUGAGGUCUUGUCCUAAGGUGAAUUCAGUAUAUGUUUUGGUGAGGCAGAAAGCUGGACAG | -1.8

Other studies, line by line
Molecule | target | test | test system | setting | how to read | measurement | result
PhoQ, residues 284 288 289 292 302 303 SLANKL | PhoP, residues 12 14 15 18 19 AWHSL (Escherichia coli, UniProt P23836) | Sort-seq, item: YFP reporter | E. coli | PhoQ-PhoP variant library, added: 10 µM Mg2+ | reference: high Mg2+ state, higher = stronger signaling | fold induction | 6
TFEHWYWTDTTYKHH | OGT (Homo sapiens, UniProt O15294) | binding, phage display NGS | peptide | concentration not given | reference: input library | enrichment fold change | 5.29

A few entries again (sample 1):
Strand | 7-mer Z-score
UAGCUCG | -0.335
ACCCAAU | -0.213
